Measurements gathered from unrelated publications.
Protocols differ between the studies behind these lines. Several values in a cell are separate wells, animals, samples, runs or records. ± gives the spread as reported.

COc1ncc(-c2nc3c(n2C(C)C)[C@H](c2ccc(Cl)cc2)N(c2cc(Cl)cn(C)c2=O)C3=O)c(OC)n1  median Tmax (human patients, plasma; oral, 50 mg, high-dose arm, cycle 2 day 1): 3.5 h
Cc1cc(-c2nccc3c2ccn3CC(=O)Nc2ccc(-c3cnccn3)cn2)ccn1  subjects with any serious TEAE (human; SAD part, single 20 mg dose): 0%
CCOc1c([C@H](C)n2nc(C)c3c(N)ncnc32)cc(Cl)c(F)c1[C@@H]1CNC(=O)C1  ECG observations (measured: QRS ≤100 ms; previously treated B-cell malignancy; oral, 45 mg once daily, baseline below thresholds): 100%
O=C(/C=C/CCc1ccc(O)cc1)/C=C/c1ccc(O)cc1  body weight (nude mouse MCF7 xenograft; 20 mg/kg, day 8): 20.4 ± 0.93 g
COc1ccc2cc(CNC(=O)C3(C(=O)O)CCC3)ccc2c1  DLS scattered light intensity (colloidal aggregate formation, dynamic light scattering; 50 mM potassium phosphate buffer; 200 µM, pH 7.0, 1% DMSO; higher = more aggregation): 1.56e+07 counts/s
COc1cc(Nc2ncc3c(n2)-c2ccc(Cl)cc2C(c2c(F)cccc2OC)=NC3)ccc1C(=O)O  patients with adverse event (measured: Dizziness, grade 1; cancer patients, phase 1/2; oral, dose not given, added: pembrolizumab): 8%
CCOC(=O)C1(NS(=O)(=O)c2cc(Cl)cc(Cl)c2O)CC2(CCC2)C1  DLS scattered light intensity (colloidal aggregate formation, dynamic light scattering; 50 mM potassium phosphate buffer; 200 µM, pH 7.0, 1% DMSO; higher = more aggregation): 666000 counts/s
CCCCC1=NC2(CCCC2)C(=O)N1Cc1ccc(-c2ccccc2S(=O)(=O)Nc2noc(C)c2C)c(COCC)c1  Cmax (healthy adult volunteers, plasma; oral, 50 mg, 14 days repeated dosing, fasted, crushed tablet): 1510 ng/mL
CC(=O)NC[C@H]1CN(c2ccc(N3CCOCC3)c(F)c2)C(=O)O1  deviation from nominal concentration (human whole blood; concentration not given, 8 h, 4 °C): 1%
C=CC(=O)N1CCC(c2ccc(C(N)=O)c(-c3ccc(Oc4ccccc4)cc3)n2)CC1  incidence of serious herpes zoster (CTCAE 4.03; patients with relapsed/refractory MCL; oral, dose not given): 0.9%
NC1(C(=O)N[C@@H](CCO)c2ccc(Cl)cc2)CCN(c2nc[nH]c3nccc2-3)CC1  Tmax (LC-MS/MS, non-compartmental; human, plasma; added: enzalutamide): 2 h and 4 h
CC(=O)N(C)[C@H]1CCN(C(=O)c2cnc3c(c2)C[C@](C)(c2ccc(F)cc2)N3)C1  serious adverse events (healthy male subjects, multiple rising dose; oral, 15 mg once daily): 0%
CC(Cc1c(Cl)cccc1Cl)NS(=O)(=O)c1ccoc1C(=O)O (centres unmarked)  DLS scattered light intensity (colloidal aggregate formation, dynamic light scattering; 50 mM potassium phosphate buffer; 200 µM, pH 7.0, 1% DMSO; higher = more aggregation): 573000 counts/s
Cc1ccc(N(C)C(=O)/C=C/c2ccco2)cc1  licking latency (cold plate test; mice; oral, 30 mg/kg daily for 7 days, 45 min after dose, day 8): 20 ± 0.4 s
CNC(=O)c1ccc(-c2cnc3ncc(Cc4ccc5ncccc5c4)n3n2)cc1F  patients with adverse event (measured: Diarrhea; gastric cancer patients; oral, 600 mg twice daily, expansion cohort, grade 3-4): 0%
CC[C@H](C)[C@H](NC(=O)[C@H](Cc1ccccc1)NC(=O)[C@H](CCC(=O)O)NC(=O)[C@H](CCCCNC(=O)COCCOCCNC(=O)COCCOCCNC(=O)CC[C@H](NC(=O)CCCCCCCCCCCCCCCCC(=O)O)C(=O)O)NC(=O)[C@H](C)NC(=O)[C@H](C)NC(=O)[C@H](CCC(N)=O)NC(=O)CNC(=O)[C@H](CCC(=O)O)NC(=O)[C@H](CC(C)C)NC(=O)[C@H](Cc1ccc(O)cc1)NC(=O)[C@H](CO)NC(=O)[C@H](CO)NC(=O)[C@@H](NC(=O)[C@H](CC(=O)O)NC(=O)[C@H](CO)NC(=O)[C@@H](NC(=O)[C@H](Cc1ccccc1)NC(=O)[C@@H](NC(=O)CNC(=O)[C@H](CCC(=O)O)NC(=O)C(C)(C)NC(=O)[C@@H](N)Cc1cnc[nH]1)[C@@H](C)O)[C@@H](C)O)C(C)C)C(=O)N[C@@H](C)C(=O)N[C@@H](Cc1c[nH]c2ccccc12)C(=O)N[C@@H](CC(C)C)C(=O)N[C@H](C(=O)N[C@@H](CCCNC(=N)N)C(=O)NCC(=O)N[C@@H](CCCNC(=N)N)C(=O)NCC(=O)O)C(C)C  placebo-subtracted change in QTcI (QT interval corrected for heart rate, 12-lead Holter ECG; healthy human subjects; subcutaneous, 1.5 mg once weekly, 12 h post-dose, steady state; reference: placebo, time-matched baseline): -4.1 ms
COc1cc2c(cc1OC)C(=O)C(CC1CCN(Cc3ccccc3)CC1)C2 (centres unmarked)  PEF (spirometry; human subjects; dose not given; reference: placebo): -0.286 L/s
Cc1c(C(=O)O)ccc2c3n(nc12)[C@@H]1[C@H](C3)N(CC2CC2)[C@@]2(C(=O)Nc3cc(Cl)ccc32)[C@H]1c1cccc(Cl)c1F  adverse event incidence (phase Ia trial, measured: Nausea; cancer patients; oral, dose not given, all patients grade ≥3): 7.4%
CO[C@H]1C[C@@H]2CC[C@@H](C)[C@@](O)(O2)C(=O)C(=O)N2CCCC[C@H]2C(=O)O[C@H]([C@H](C)C[C@@H]2CC[C@@H](O)[C@H](OC)C2)CC(=O)[C@H](C)/C=C(\C)[C@@H](O)[C@@H](OC)C(=O)[C@H](C)C[C@H](C)/C=C/C=C/C=C/1C  heart rate (healthy adult horses; oral, 0.06 mg/kg, 8 h): 35.5 ± 3.1 beats/min
CNC(=O)c1ccc(-c2cnc3ncc(Cc4ccc5ncccc5c4)n3n2)cc1F  Pyrexia dose reduction/interruption (Japanese patients; oral, 400 mg, any grade): 3%
COc1cccc(OC)c1-c1cc(C(=O)NC2(C(=O)O)C3CC4CC(C3)CC2C4)nn1-c1ccc(C(=O)N(C)CCCN(C)CCCN(C)C(=O)CN2CCN(CC(=O)[O-])CCN(CC(=O)[O-])CCN(CC(=O)[O-])CC2)cc1C(C)C.[177Lu+3] (centres unmarked)  tumour-to-brain ratio (mouse, HT-29 xenograft; 24 h post injection, biodistribution; reference: tumour over brain uptake): 254
Cn1ncc(S(=O)(=O)NC2CCc3c2ccc(Cl)c3Cl)c1C(=O)O (centres unmarked)  DLS scattered light intensity (colloidal aggregate formation, dynamic light scattering; 50 mM potassium phosphate buffer; 200 µM, pH 7.0, 1% DMSO; higher = more aggregation): 1.75e+06 counts/s
CN(C(=O)n1cnc(-c2cccnc2)c1)[C@H]1CC[C@H](O)CC1  tissue concentration (rat, hippocampus; oral, 10 mg/kg daily for 5 days, 24 h): 17.2 ± 1.6 ng/g
CC(C)C[C@H](NC(=O)[C@H](CC(C)C)NC(=O)[C@H](Cc1c[nH]c2ccccc12)NC(=O)[C@H](CCC(=O)O)NC(=O)[C@@H](NC(=O)[C@H](Cc1ccccc1)NC(=O)[C@H](CCC(=O)O)NC(=O)[C@H](CCCCNC(=O)COCCOCCNC(=O)COCCOCCNC(=O)CC[C@H](NC(=O)CCCCCCCCCCCCCCCCCCC(=O)O)C(=O)O)NC(=O)[C@H](C)NC(=O)[C@H](CCCCN)NC(=O)[C@H](CCCCN)NC(=O)[C@H](CCC(=O)O)NC(=O)[C@H](CC(=O)O)NC(=O)[C@H](CC(C)C)NC(=O)[C@H](Cc1ccc(O)cc1)NC(=O)[C@H](CCCCN)NC(=O)[C@H](CO)NC(=O)[C@H](Cc1ccc(O)cc1)NC(=O)[C@H](CC(=O)O)NC(=O)[C@H](CO)NC(=O)[C@@H](NC(=O)[C@H](Cc1ccccc1)NC(=O)[C@@H](NC(=O)CNC(=O)[C@H](CCC(N)=O)NC(=O)C(C)(C)NC(=O)[C@@H](N)Cc1c[nH]cn1)[C@@H](C)O)[C@@H](C)O)C(C)C)C(=O)N[C@@H](CCC(=O)O)C(=O)NCC(=O)NCC(=O)N1CCC[C@H]1C(=O)N[C@@H](CO)C(=O)N[C@@H](CO)C(=O)NCC(N)=O  AUC(0-tlast) (human, plasma; subcutaneous, 16 mg once weekly, week 20, geometric mean): 1550 µg·h/mL
NCc1cc2c(cc1F)C(=O)N(C1CCC(=O)NC1=O)C2 (centres unmarked)  half-life (male Beagle dog, whole blood; added: SSAO/VAP-1 inhibitor): > 3 h
COC(=O)N[C@H](C(=O)N1CCC[C@H]1c1ncc(-c2cc(F)c3c(c2)O[C@@H](c2cnc(C4CC4)s2)n2c-3cc3cc(-c4cnc([C@@H]5CCCN5C(=O)[C@@H](NC(=O)OC)C(C)C)[nH]4)ccc32)[nH]1)C(C)C  Ctrough increase (healthy adult humans; oral, dose not given; reference: moderate-fat meal over fasted): ~88%
CCN1/C(=C/C(C)=O)Sc2ccc(F)cc21  QT interval (cynomolgus monkey; oral, 100 mg/kg, 24 h post-dose): 251 ± 9 ms
O=C(COc1ccc(Cl)cc1)NC12CC(c3nnc([C@H]4C[C@@H](OC(F)(F)F)C4)o3)(C1)C2  adverse event incidence (measured: Headache; human; 28 (unit not given)): 36.8%
CC1CC1(C(=O)O)C(=O)NCc1ccc(Sc2ccccc2)cc1 (centres unmarked)  DLS scattered light intensity (colloidal aggregate formation, dynamic light scattering; 50 mM potassium phosphate buffer; 200 µM, pH 7.0, 1% DMSO; higher = more aggregation): 592000 counts/s
CC12CC3(C)CC(C(=O)O)(C1)CC(C(=O)O)(C2)C3  HC50 (haemolysis; sheep erythrocytes; 1 h, pH 7.5): > 128 µg/mL
O=C(Nc1nc2cccc(-c3ccc(CN4CCS(=O)(=O)CC4)cc3)n2n1)C1CC1  treatment-emergent adverse events (measured: somnolence; rheumatoid arthritis patients; oral, 200 mg once daily, 4 weeks, any relatedness): 8.3%
O=C(N/N=C/c1ccccc1O)c1ccncc1  stability (ADS buffer; 4 µM, 12 h, 5 °C, post-preparative, autosampler): 99.6%
COC1=C(OC)[C@H](O)[C@H](C/C=C(\C)CC/C=C(\C)CCC=C(C)C)[C@@H](C)C1=O  blood concentration (Balb/c mice male, whole blood; oral, 50 mg/kg, 7 h): 26.6 nM
CNCc1ccc(-c2[nH]c3cc(F)cc4c3c2CCNC4=O)cc1  asthenia/fatigue incidence (patients; oral, 240 mg twice daily, all grades): 66.7%
CCc1ccc(C(=O)Oc2ccc(C#N)c(F)c2)cc1  concentration (measured: compound; human pregnant women, male fetuses, cord serum; dose not given, paired maternal-cord samples, mean): 3.72 ng/mL
CC(C)c1nc(CN(C)C(=O)N[C@H](C(=O)N[C@@H](Cc2ccccc2)C[C@H](O)[C@H](Cc2ccccc2)NC(=O)OCc2cncs2)C(C)C)cs1  lymph node sequestered fraction (Macaca nemestrina; subcutaneous, slow pathway, TLC-ART): ~1
CCCCCCCOc1ccc(CCC(N)(CO)CO)cc1C(F)(F)F.Cl  urinary excretion (healthy men, urine; oral, 0.25 mg once daily, day 21, fed state; reference: dose): 0.111%
COc1cc(C(=O)NC2CCN(C)CC2)c(F)cc1Nc1ncc(C(F)(F)F)c(Oc2cccc3c2C(=O)N(C)C3)n1  dose-normalised Cmax at steady state (human patients, plasma; oral, 100 mg once daily repeated, geometric mean): 14.3 nmol/L per mg
Cc1nc2cccc(OCC(C)(C)C(=O)NC(C)C)c2c(N)c1C(=O)O  Cmax ratio female over male (Sprague-Dawley rat, plasma; oral, 100 mg/kg, day 7, 7-day repeated dosing; reference: female over male): 1.61 ± 0.71
COc1cc2c(cc1OC)CN(CCc1ccc(NC(=O)c3cc(OC)c(OC)cc3NC(=O)c3cnc4ccccc4c3)cc1)CC2  drug loss on filter (0.22 µm nylon filter): < 1%
CO[C@H]1CC[C@H](N2C(=O)CNc3ncc(-c4ccc(C(C)(C)O)nc4)nc32)CC1  urinary excretion Ae(0-24 h) (patients, urine; oral, 45 mg, day -1, geometric mean): 81300 ng
CCn1cc(C(=O)N2CCOCC2)c(=O)c2cc(NC3Cc4ccccc4C3)cnc21  half-life (human, fed; oral suspension, 1200 mg single dose, arithmetic mean): 8.2 h
C[C@@H]1COCCN1c1cc(C2([S@](C)(=N)=O)CC2)nc(-c2cc[nH]c3nccc2-3)n1  Pyrexia incidence (Japanese advanced solid tumour patients; oral, 160 mg twice daily, CTCAE grade ≥3): 0%
N#Cc1ccc2c(c1)[C@H]1CCCN(C(=O)c3ccc4[nH]cnc4c3)[C@H]1C2  SHBG level (human females; 10 mg, end of trial): 28.7 nmol/L
Cc1ccc([C@@H]2O[C@H](CO)[C@@H](O)[C@H](O)[C@H]2O)cc1Cc1ccc(-c2ccc(F)cc2)s1  urinary potassium excretion change (Japanese type 2 diabetes patients; 25 mg, day 6, 24 h urine collection; reference: baseline): -4.75 mEq
O=C(O)CCCOc1ccc([18F])cc1-c1cc(-c2ccccc2C(F)(F)F)n(-c2ccccc2)n1  radioactivity uptake (gamma counting; male ddY mice, pancreas; intravenous, 2.1 MBq, 15 min): 0.37 ± 0.03 SUV
Cc1c(-c2ccc(N3CCc4cccc(C(=O)Nc5nc6ccccc6s5)c4C3)nc2C(=O)O)cnn1CC12CC3(C)CC(C)(C1)CC(OCCNCC[C@H](O)CO)(C3)C2  mean arterial pressure change (beagle dog, male, anaesthetised; intravenous infusion, 0.01 mg/kg/min, 90 min; reference: baseline): 1 mmHg
Cn1cc([C@H]2C[C@H]3CSC(N)=N[C@@]3(c3ccc(F)cc3F)CO2)cn1  brain concentration (male 129/SVE mouse, brain; subcutaneous, 3 mg/kg, 9 h): 62 nM
O=S(=O)(NC(C1CC1)C1(CO)CCCO1)c1cccc(Cl)c1O (centres unmarked)  DLS scattered light intensity (colloidal aggregate formation, dynamic light scattering; 50 mM potassium phosphate buffer; 200 µM, pH 7.0, 1% DMSO; higher = more aggregation): 326000 counts/s
CCC(C)n1ncn(-c2ccc(N3CCN(c4ccc(OCC5COC(Cn6cncn6)(c6ccc(Cl)cc6Cl)O5)cc4)CC3)cc2)c1=O (centres unmarked)  adverse event incidence (measured: general administration site conditions; healthy human participants; oral, 200 mg, compound alone cohort): 0%
COc1ccnc(C(=O)NCC(=O)O)c1O  Freundlich coefficient KF (soil adsorption; clay loam soil; pH 7.2, organic carbon 4.4 %): 6.99 mL/g
Cc1cnc(N2CC3(CCOCC3)C2)c(C(=O)Nc2ccc(C(=O)N3CCc4cc(C(=O)Nc5c(C)cccc5F)sc4-c4ccccc43)cc2)c1  concentration (human, nasal epithelial lining fluid; inhaled, 5 mg twice daily, 108 h): 11000 ng/mL
NCCONC(=O)[C@@H]1CC[C@@H]2CN1C(=O)N2OS(=O)(=O)O  number of Mild TRAE events (healthy Chinese male subjects; intravenous, 1 g): 3
